Measured values collected from several papers.
Each numbered part is a random draw from the data of one study; scales do not carry over between parts.
UniProt P10721, sequence (whole entry, unmodified, looked up): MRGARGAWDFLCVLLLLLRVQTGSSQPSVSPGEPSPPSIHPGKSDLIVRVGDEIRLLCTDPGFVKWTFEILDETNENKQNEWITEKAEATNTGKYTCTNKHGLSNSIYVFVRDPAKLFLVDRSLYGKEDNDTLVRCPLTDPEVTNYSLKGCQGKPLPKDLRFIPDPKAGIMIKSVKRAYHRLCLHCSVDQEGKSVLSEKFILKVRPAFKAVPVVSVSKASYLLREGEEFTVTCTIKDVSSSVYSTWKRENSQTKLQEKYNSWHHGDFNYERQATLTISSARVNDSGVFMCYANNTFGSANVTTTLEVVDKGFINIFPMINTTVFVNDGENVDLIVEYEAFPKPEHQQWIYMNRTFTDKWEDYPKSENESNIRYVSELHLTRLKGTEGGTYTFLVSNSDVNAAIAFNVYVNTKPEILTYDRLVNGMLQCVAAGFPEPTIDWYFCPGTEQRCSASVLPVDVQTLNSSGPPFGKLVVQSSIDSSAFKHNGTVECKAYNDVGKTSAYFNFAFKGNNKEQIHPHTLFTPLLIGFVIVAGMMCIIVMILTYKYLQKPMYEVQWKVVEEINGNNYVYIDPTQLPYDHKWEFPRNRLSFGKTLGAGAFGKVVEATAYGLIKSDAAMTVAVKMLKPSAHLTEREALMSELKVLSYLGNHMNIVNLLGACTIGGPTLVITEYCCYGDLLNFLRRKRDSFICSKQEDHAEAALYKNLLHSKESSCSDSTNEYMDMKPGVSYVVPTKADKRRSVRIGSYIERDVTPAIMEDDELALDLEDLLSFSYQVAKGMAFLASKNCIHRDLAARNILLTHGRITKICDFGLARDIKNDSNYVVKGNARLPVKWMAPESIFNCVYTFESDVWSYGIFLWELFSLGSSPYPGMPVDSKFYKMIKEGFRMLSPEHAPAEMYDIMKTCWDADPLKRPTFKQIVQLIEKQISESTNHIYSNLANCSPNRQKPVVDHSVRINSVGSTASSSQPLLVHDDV
UniProt O14733, sequence (whole entry, looked up): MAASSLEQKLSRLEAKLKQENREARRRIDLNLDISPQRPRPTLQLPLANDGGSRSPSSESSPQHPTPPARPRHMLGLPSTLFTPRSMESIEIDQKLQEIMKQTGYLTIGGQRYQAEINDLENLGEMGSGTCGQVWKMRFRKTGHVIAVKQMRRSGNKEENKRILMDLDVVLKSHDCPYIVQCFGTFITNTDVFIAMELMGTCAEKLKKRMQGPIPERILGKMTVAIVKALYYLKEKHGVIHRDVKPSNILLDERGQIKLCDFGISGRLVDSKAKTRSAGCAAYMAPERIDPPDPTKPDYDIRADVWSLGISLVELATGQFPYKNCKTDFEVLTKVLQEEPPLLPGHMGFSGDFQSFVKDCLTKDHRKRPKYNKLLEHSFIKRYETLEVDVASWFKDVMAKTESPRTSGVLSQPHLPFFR
UniProt Q9UKE5, sequence (whole entry, looked up): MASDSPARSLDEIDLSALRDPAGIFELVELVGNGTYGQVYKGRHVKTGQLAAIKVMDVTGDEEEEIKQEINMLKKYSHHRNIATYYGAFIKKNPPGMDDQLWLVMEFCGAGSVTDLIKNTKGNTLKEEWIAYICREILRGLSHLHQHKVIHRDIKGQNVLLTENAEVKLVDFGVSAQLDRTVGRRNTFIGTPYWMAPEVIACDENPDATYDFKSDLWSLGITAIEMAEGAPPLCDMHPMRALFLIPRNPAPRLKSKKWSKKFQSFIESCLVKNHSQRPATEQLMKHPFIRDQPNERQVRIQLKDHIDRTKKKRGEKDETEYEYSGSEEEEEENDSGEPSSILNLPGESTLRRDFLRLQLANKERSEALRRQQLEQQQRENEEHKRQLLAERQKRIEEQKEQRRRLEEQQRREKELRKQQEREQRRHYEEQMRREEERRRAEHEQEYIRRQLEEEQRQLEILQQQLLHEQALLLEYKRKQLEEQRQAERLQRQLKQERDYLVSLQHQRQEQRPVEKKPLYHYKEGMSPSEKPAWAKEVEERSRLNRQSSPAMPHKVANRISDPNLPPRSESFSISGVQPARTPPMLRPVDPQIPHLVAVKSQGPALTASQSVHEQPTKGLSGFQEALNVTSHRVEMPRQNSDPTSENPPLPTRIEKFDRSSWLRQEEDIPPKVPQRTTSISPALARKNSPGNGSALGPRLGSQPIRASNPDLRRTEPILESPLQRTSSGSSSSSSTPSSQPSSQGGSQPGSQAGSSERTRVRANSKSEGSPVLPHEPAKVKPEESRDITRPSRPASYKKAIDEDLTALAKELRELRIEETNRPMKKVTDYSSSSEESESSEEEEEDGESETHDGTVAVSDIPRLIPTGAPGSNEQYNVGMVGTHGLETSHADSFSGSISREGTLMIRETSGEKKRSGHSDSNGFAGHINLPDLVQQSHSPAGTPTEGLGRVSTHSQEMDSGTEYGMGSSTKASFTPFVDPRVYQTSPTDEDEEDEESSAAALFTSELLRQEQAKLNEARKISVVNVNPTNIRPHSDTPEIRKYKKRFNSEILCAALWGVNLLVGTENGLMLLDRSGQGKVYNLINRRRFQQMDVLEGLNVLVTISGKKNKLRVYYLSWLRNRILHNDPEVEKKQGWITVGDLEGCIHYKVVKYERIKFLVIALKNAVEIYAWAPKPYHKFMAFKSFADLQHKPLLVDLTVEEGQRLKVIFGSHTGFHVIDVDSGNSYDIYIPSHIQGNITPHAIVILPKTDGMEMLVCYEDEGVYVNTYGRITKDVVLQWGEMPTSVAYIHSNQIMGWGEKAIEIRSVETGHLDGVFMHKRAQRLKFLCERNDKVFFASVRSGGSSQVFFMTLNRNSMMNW
UniProt P51813, sequence (whole entry, looked up): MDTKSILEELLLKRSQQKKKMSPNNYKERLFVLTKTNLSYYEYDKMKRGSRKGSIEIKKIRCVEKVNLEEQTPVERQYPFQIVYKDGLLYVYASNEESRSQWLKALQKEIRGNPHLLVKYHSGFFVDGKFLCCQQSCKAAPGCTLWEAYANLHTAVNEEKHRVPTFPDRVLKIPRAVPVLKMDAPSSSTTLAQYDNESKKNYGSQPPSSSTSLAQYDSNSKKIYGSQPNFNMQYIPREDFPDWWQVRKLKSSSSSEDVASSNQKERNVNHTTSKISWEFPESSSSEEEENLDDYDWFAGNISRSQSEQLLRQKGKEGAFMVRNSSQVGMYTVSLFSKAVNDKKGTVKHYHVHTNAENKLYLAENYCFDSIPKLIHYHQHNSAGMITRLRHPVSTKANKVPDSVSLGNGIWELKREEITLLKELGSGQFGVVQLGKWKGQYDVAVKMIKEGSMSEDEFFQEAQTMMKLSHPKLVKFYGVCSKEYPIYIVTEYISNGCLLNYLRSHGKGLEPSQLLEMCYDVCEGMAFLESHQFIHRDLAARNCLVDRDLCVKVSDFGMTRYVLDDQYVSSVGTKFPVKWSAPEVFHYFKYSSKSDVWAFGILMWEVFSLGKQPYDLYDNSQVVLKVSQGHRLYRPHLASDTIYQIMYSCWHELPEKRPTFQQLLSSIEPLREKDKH
UniProt Q15208, sequence (whole entry, looked up): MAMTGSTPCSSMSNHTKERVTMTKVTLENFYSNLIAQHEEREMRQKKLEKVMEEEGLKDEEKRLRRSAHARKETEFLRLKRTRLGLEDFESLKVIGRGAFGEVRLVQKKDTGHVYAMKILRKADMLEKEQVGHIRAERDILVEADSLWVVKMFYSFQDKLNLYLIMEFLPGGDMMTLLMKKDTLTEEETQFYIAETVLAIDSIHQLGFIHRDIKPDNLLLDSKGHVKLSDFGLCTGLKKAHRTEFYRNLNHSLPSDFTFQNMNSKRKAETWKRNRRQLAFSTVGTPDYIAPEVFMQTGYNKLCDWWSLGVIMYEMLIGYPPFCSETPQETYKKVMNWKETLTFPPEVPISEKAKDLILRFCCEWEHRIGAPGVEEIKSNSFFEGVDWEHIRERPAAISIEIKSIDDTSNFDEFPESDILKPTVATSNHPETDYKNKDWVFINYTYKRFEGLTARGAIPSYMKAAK

Block 1 — observed: cell-free assay; method: competition with immobilised ligand; concentration: 1 µM
Structure (SMILES): COc1cc(-c2cn(C3CCc4c(F)cccc4N(CC(F)(F)F)C3=O)nn2)ccc1-n1cnc(C)c1 (stereo not drawn)
target	remaining binding [%]
Ribosomal protein S6 kinase alpha-4, C-terminal kinase domain (RPS6KA4, Homo sapiens, UniProt O75676)	100
Tyrosine-protein kinase ABL1, phosphorylated (ABL1, Homo sapiens, UniProt P00519, M351T)	95
HIPK1 (Homo sapiens, UniProt Q86Z02)	100
KIT (Homo sapiens, UniProt P10721, A829P)	92
BMX (Homo sapiens, UniProt P51813)	100
LATS2 (Homo sapiens, UniProt Q9NRM7)	100
MAP2K7 (Homo sapiens, UniProt O14733)	100
SRPK2 (Homo sapiens, UniProt P78362)	100
STK38 (Homo sapiens, UniProt Q15208)	89
SRMS (Homo sapiens, UniProt Q9H3Y6)	100
CLK4 (Homo sapiens, UniProt Q9HAZ1)	100
CIT (Homo sapiens, UniProt O14578)	100
TNIK (Homo sapiens, UniProt Q9UKE5)	94
SBK3 (Homo sapiens, UniProt P0C264)	100
EGFR (Homo sapiens, UniProt P00533, G719S)	90
MAP3K14 (Homo sapiens, UniProt Q99558)	86
KIT (Homo sapiens, UniProt P10721, V559D/V654A)	97
ERBB3 (Homo sapiens, UniProt P21860)	98

Block 2 — cell line: A-375; concentration: 100 µM; time: 18 h
Structure (SMILES)	viability [%]
CC[C@H]1OC(=O)[C@H](C)[C@@H](O[C@H]2C[C@@](C)(OC)[C@@H](O)[C@H](C)O2)[C@H](C)[C@@H](O[C@@H]2O[C@H](C)C[C@H](N(C)C)[C@H]2O)[C@](C)(O)C[C@@H](C)/C(=N\OCOCCOC)[C@H](C)[C@@H](O)[C@]1(C)O	73
CC(C)(C)c1ccc(C(O)CCCN2CCC(C(O)(c3ccccc3)c3ccccc3)CC2)cc1 (stereo not drawn)	8.25
Cc1ncc([N+](=O)[O-])n1C	92.6
CCC(C)(C)C(=O)O[C@H]1C[C@@H](C)C=C2C=C[C@H](C)[C@H](CC[C@@H]3C[C@@H](O)CC(=O)O3)[C@H]21	76.5
CO/N=C(\C(=O)N[C@@H]1C(=O)N2C(C(=O)O)=C(CSc3nc(=O)c(=O)[nH]n3C)CS[C@H]12)c1csc(N)n1	96.6
CCOCC(O)COc1ccc(NC(=O)CC[S+](C)C)cc1 (stereo not drawn)	104
CC(C)[C@@H]1CC[C@@H](C)C[C@H]1O	108
CCc1nc(N)nc(N)c1-c1ccc(Cl)cc1	67.3
CC(C)OC(=O)C(C(=O)OC(C)C)=C1SC=CS1	13.6
Nc1c(CC(=O)O)cccc1C(=O)c1ccccc1	108

Block 3 — observed: enzyme activity; action: inhibitor; concentration: 0.5 µM; baseline: control
Target: Serine/threonine-protein kinase TAO1 (TAOK1, Homo sapiens, UniProt Q7L7X3)
UniProt Q7L7X3, sequence (whole entry, looked up): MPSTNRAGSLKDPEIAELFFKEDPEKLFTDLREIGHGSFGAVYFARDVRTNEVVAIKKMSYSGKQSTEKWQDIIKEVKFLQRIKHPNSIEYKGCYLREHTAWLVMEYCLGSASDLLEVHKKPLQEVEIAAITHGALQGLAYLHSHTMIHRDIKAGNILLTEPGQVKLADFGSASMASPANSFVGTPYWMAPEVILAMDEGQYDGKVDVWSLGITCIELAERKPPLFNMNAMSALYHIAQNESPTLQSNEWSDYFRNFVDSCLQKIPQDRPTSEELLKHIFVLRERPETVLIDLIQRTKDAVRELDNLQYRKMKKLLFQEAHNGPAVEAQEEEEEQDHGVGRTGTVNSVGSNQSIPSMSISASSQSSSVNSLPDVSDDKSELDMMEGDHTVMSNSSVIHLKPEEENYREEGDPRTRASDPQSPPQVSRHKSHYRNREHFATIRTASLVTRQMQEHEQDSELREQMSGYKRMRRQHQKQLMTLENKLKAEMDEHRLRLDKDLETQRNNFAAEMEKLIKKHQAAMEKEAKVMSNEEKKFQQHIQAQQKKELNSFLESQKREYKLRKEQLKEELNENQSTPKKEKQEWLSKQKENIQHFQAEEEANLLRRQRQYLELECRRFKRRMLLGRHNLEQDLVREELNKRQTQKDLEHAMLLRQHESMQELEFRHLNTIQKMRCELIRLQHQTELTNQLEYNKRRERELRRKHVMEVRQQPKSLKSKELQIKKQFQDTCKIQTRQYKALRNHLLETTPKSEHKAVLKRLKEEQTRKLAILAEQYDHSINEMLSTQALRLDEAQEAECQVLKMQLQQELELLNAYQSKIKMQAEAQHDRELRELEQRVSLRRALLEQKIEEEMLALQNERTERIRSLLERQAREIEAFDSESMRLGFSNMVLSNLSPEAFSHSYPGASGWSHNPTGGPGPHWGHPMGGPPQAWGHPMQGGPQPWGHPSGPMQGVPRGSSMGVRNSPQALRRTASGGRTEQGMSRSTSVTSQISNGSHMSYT
SMILES	remaining activity [%]
CC(C)[C@H](CO)Nc1nc(Nc2cccc(Cl)c2)c2ncn(C(C)C)c2n1	95.4
Nc1[nH]nc2nnc(-c3c(-c4ccccc4)nn4ccccc34)cc12	95.8
CN(C)CCCn1cc(C2=C(c3c[nH]c4ccccc34)C(=O)NC2=O)c2ccccc21	80.8
Cn1cc(/C=C2\C(=O)Nc3ccc(S(N)(=O)=O)cc32)c2ccccc21	98.3
O=C1NC(=O)/C(=C/c2ccc3nccnc3c2)S1	82.8
COc1cc2ncnc(Nc3ccc(OCc4ccccc4)cc3)c2cc1OC	94.4
Cn1cnc2cc3c(Nc4cccc(Br)c4)ncnc3cc21	92.4
O=c1cc(N2CCOCC2)oc2c1ccc1ccccc12	97.5
CS(=O)(=O)CCNCc1ccc(-c2ccc3ncnc(Nc4ccc(OCc5cccc(F)c5)c(Cl)c4)c3c2)o1	98.8
CCOc1cc2ncnc(Nc3cccc(Br)c3)c2cc1OCC	99.9
Cc1ccc(NC(=O)c2ccc(CN3CCN(C)CC3)cc2)cc1Nc1nccc(-c2cccnc2)n1	101
COc1cc2ncnc(N3CCN(C(=O)Nc4ccc(Oc5ccccc5)cc4)CC3)c2cc1OC	81.6
COc1cc2ncc(-c3ccccc3)nc2cc1OC	104
Cc1nc(Nc2ncc(C(=O)Nc3c(C)cccc3Cl)s2)cc(N2CCN(CCO)CC2)n1	101
COc1ccc(Cl)cc1NC(=O)Nc1cc(C)nc2ccccc12	103
CCC(=O)Nc1ccc2ncnc(Nc3cccc(Br)c3)c2c1	79.1
O=C(Nc1ccc(Cl)cc1)c1ccccc1NCc1ccncc1	110
CCN1/C(=C/C(C)=O)Sc2ccc(OC)cc21	92.4
CC(C)c1nn(-c2c(Cl)cccc2Cl)c2nc(Cc3ccc(OCCO)cc3)[nH]c(=O)c12	72.1

Block 4 — species: human; sample: microsomes or S9; concentration: 2 µM; time: 0.5 h
SMILES	remaining compound
CSc1nnc(CNC(=O)OC(C)(C)C)n1-c1ccccc1	84.7%
O=C1C[C@H](n2nc(-c3ccc(F)cc3)oc2=S)[C@H]2CO[C@@H]1O2	6.37%
Cc1ccc(-n2ncc3c(C(C)C)nn(CC(=O)NC(C)(C)C)c(=O)c32)cc1C	88.6%
CCc1c(C(=O)OC(C)c2nnc(C)o2)[nH]c(C)c1C(C)=O (stereo not drawn)	88.9%
COc1cccc2c1CCC(=O)N2CCCN1CCC(c2ccccc2)CC1	10.6%
CCN(CC)C(=O)Cc1c(/C=C/c2ccccc2)[nH]c2ccccc12	4.1%
Cc1ccc(C(=O)c2[nH]c3ccccc3c2CC(=O)O)cc1	26.2%
CCc1ccc(NC(=O)CN(CCc2ccccc2)S(=O)(=O)c2ccc(C)cc2)cc1	2.76%
Cc1cc(Cl)cc2c(=O)[nH]c(-c3cc(Br)nn3-c3ncccc3Cl)nc12	14.2%
Cc1nc2[nH]nc(N)c2c(C)c1-c1cnn(CCC(C)C)c1	42%
